Measurements pooled from the literature.
Every numbered part comes from another study and shows a few of its results, in no order. Changes are numbered by the printed parent chain.
UniProt Q9Y2X8, sequence (whole entry, looked up): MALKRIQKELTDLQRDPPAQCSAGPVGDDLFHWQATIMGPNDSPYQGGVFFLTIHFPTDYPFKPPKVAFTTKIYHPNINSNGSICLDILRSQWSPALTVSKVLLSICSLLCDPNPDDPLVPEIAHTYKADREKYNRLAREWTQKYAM

Set 1 — target: CCND3, cyclin fold, Cln2 fusion (human); method: yeast growth competition, sequencing; sample: yeast; notes: weak parent motif; reference: not given; direction: higher = stronger binding; parent: viral docking peptide; PGASRRLFGSSAD
| Substitution | normalised enrichment score |
| --- | --- |
| S4A | 0.126 |
| L7A | 0.0958 |
| F8L | 0.402 |
| R6A | 0.113 |
| D13A | 0.13 |
| S11A | 0.123 |
| R5A L7A | 0.222 |

Set 2 — read-out: peptide-MHC binding; molecule type: peptide; concentration: concentration not given
Target: HLA class I histocompatibility antigen, A alpha chain, allele A*80:01 (Homo sapiens, UniProt P04439)
| Molecule | binding |
| --- | --- |
| KVSVGSYFC | inactive |
| MYKLNKPTK | inactive |
| SIKFKRKLM | inactive |
| IILKALYML | inactive |
| WKAIGAYIL | inactive |

Other studies, line by line
| Molecule | tested on | assay | test system | setting | how to read | measurement | result |
| --- | --- | --- | --- | --- | --- | --- | --- |
| KRT14 (Homo sapiens, UniProt P02533) | KRT8 (Homo sapiens, UniProt P05787) | cross-linking MS |  | hits only |  | interaction screen | cross-linked |
| ANYISAHTKDCPKCNICIEKNGGCNHMQCSKCKHDFCWMCLGDWKTHGSE (ARIH2 RING domain (UniProt O95376)) | UBE2D4 UBC core domain (UniProt Q9Y2X8) | yeast two-hybrid | peptide, yeast | mostly zero background | reference: not given, higher = stronger interaction | lacZ reporter activity | 0 |

Excerpt of the above (set 2):
| Molecule | binding |
| --- | --- |
| MYKLNKPTK | inactive |
